Measured values collected from several papers.
± gives the spread as reported.

| SMILES | tested on | test | system | conditions | how to read | quantity | result |
| --- | --- | --- | --- | --- | --- | --- | --- |
| Cl.[2H]C([2H])([2H])CC(=O)c1cnc(NC(=O)C2CC2)cc1Nc1cccc(-c2ncn(C([2H])([2H])[2H])n2)c1OC | – | median | human | oral, 10 mg once daily, day 1, fasted, liquid, multiple dose | – | Tmax | 0.8 h |
| COc1cc(C2=CCCc3c2ccc(OC)c3OC(C)c2ccc([N+](=O)[O-])s2)cc(OC)c1OC (stereo not drawn) | – | non-enzymatic, no POR | phosphate buffer | 24 h, pH 7.4 | – | parent drug release | 0% |
| O=C(O)c1cccc(O)c1O | – | – | human CSF | concentration not given, mean | – | CSF concentration | not detected |
| O=C1Cc2cc(CCN3CCN(c4nsc5ccccc45)CC3)c(Cl)cc2N1 | – | – | male Hartley guinea pigs, anaesthetized | intravenous, 1 mg/kg over 10 min, after infusion | – | heart rate | 171 ± 0.5 beats/min |
| Cc1ccc(Sc2ccccc2N2CCNCC2)c(C)c1 | – | item: protein in urine | healthy adult women | oral, 5 mg daily, 12 days | – | participants with TEAE | 0% |
| N[C@@H]1c2ccccc2OC12CCN(c1cnc3c(N4CCCc5ncccc54)n[nH]c3n1)CC2 | – | – | advanced metastatic solid tumour patients, plasma | oral, 20 mg once daily, cycle 1 day 15, geometric mean | – | AUC(0-tau) | 3580 ng·h/mL |
| C=CCN1CC(=O)N2[C@@H](Cc3ccc(O)cc3F)C(=O)N(Cc3cccc(N4CC(N5CCN(CC)CC5)C4)n3)C[C@@H]2N1C(=O)NCc1ccccc1 | – | item: Nausea | advanced solid tumour patients | oral, 120 mg twice daily, expansion part, any grade | – | treatment-related adverse events | 80% |
| CC(C)n1c(Nc2cccnc2)nc2cnc(Nc3ccc(N4CCN(C)CC4)cc3)nc21 | – | item: γ-glutamyltransferase increased | healthy male subjects | oral, 100 mg, study, together with: itraconazole | – | subjects with adverse event | 7.1% |
| CC[C@H]1OC(=O)[C@H](C)[C@@H](O[C@H]2C[C@@](C)(OC)[C@@H](O)[C@H](C)O2)[C@H](C)[C@@H](O[C@@H]2O[C@H](C)C[C@H](N(C)C)[C@H]2O)[C@](C)(O)C[C@@H](C)C(=O)[C@H](C)[C@@H](O)[C@]1(C)O | – | equilibrium dialysis | human liver microsomes | 2 µM, 20 h, pH 7.4, 37 °C, 0.5 mg/mL scaled to 1 mg/mL | – | fu,mic | 0.563 |
| CC(C)(C(=O)N1CCOc2c(C#N)cncc2C1)C(F)F | – | item: Arthralgia | human | oral, 10 mg once daily, 14 days, multiple ascending dose | – | subjects with adverse event | 0% |
| Cc1c(-c2ccc(N3CCc4cccc(C(=O)Nc5nc6ccccc6s5)c4C3)nc2C(=O)O)cnn1CC12CC3(C)CC(C)(C1)CC(OCCNCC[C@H](O)CO)(C3)C2 | – | – | anaesthetized male beagle dog | iv infusion, 0.01 mg/kg/min, 10 min | – | plasma concentration | 6 ng/mL |
| CC(C)NCC(O)COc1cccc2ccccc12 (stereo not drawn) | – | – | male Hartley guinea pigs, anaesthetized | intravenous, 0.3 mg/kg over 10 min, after infusion | – | heart rate | 184 ± 0.2 beats/min |
| COc1cccc(-c2n[nH]c(SCc3ccccn3)n2)c1OC | – | – | Sprague-Dawley rats, female, plasma | intravenous, 1.0 mg/kg, single dose | – | Cmax | 9840 ng/mL |
| CCC(C)n1ncn(-c2ccc(N3CCN(c4ccc(OCC5COC(Cn6cncn6)(c6ccc(Cl)cc6Cl)O5)cc4)CC3)cc2)c1=O (stereo not drawn) | – | – | healthy human volunteers | oral, 200 mg, compound alone cohort | – | incidence of ALT increased | 7% |
| CNc1ccc(-c2nc3ccc(O)cc3s2)cc1 [carbon-11 labelled] | – | ex vivo biodistribution | APP/PS1 mouse, AD model, liver | intravenous, 30 min | – | SUV | 3.15 ± 1.16 |
| Nc1ccc(-c2ccncc2)cc1NC(=O)N1CCCC1 | – | – | C57BL/6 mouse, male, plasma and brain | intraperitoneal, 10 mg/kg | – | absorption rate constant (ka) | 6 h⁻¹ |
| COc1ccc(C2CC(=O)c3c(O)cc(O)cc3O2)cc1O[C@@H]1O[C@H](C(=O)O)[C@@H](O)[C@H](O)[C@H]1O (stereo partly drawn) | – | – | human CSF | concentration not given, mean | – | CSF concentration | not detected |
| CC[C@H](C)[C@H](NC(=O)[C@H](Cc1ccccc1)NC(=O)[C@H](CCC(=O)O)NC(=O)[C@H](CCCCNC(=O)COCCOCCNC(=O)COCCOCCNC(=O)CC[C@H](NC(=O)CCCCCCCCCCCCCCCCC(=O)O)C(=O)O)NC(=O)[C@H](C)NC(=O)[C@H](C)NC(=O)[C@H](CCC(N)=O)NC(=O)CNC(=O)[C@H](CCC(=O)O)NC(=O)[C@H](CC(C)C)NC(=O)[C@H](Cc1ccc(O)cc1)NC(=O)[C@H](CO)NC(=O)[C@H](CO)NC(=O)[C@@H](NC(=O)[C@H](CC(=O)O)NC(=O)[C@H](CO)NC(=O)[C@@H](NC(=O)[C@H](Cc1ccccc1)NC(=O)[C@@H](NC(=O)CNC(=O)[C@H](CCC(=O)O)NC(=O)C(C)(C)NC(=O)[C@@H](N)Cc1cnc[nH]1)[C@@H](C)O)[C@@H](C)O)C(C)C)C(=O)N[C@@H](C)C(=O)N[C@@H](Cc1c[nH]c2ccccc12)C(=O)N[C@@H](CC(C)C)C(=O)N[C@H](C(=O)N[C@@H](CCCNC(=N)N)C(=O)NCC(=O)N[C@@H](CCCNC(=N)N)C(=O)NCC(=O)O)C(C)C | – | 12-lead Holter ECG | healthy humans | subcutaneous, 1.5 mg once weekly, 26 h, steady state | relative to: placebo | QT change from baseline | -22.5 ms |
| OC[C@H]1O[C@@H](c2ccc(Cl)c(Cc3ccc(O[C@H]4CCOC4)cc3)c2)[C@H](O)[C@@H](O)[C@@H]1O | – | – | human, plasma | oral, 25 mg, compound alone | – | AUC(tau) at steady state | 2910 ± 599 ng·h/mL |
| O=C(O)/C=C/c1ccc(O)c(O[C@@H]2O[C@H](C(=O)O)[C@@H](O)[C@H](O)[C@H]2O)c1 | – | – | human CSF | concentration not given, mean | – | CSF concentration | not detected |
| O=C(O)CCC(=O)O.[2H]C([2H])([2H])Oc1cc(C)c2[nH]ccc2c1CN1CC[C@@H](C2CC2)C[C@H]1c1ccc(C(=O)O)cc1 | – | – | healthy Chinese subjects | 600 mg, single ascending dose | – | TEAE sinus bradycardia | 16.7% |
| COc1ccc([C@@H](O)c2cc(-c3ncnc4cc(N5CCOCC5)ccc34)c(F)cc2Cl)nn1 | – | – | locally advanced rectal cancer patients | 100 mg, together with: capecitabine and radiotherapy | – | anaemia TEAE incidence | 17% |
| Cc1c(C(=O)Nc2ccc(N3C[C@@H](C)O[C@@H](C)C3)nc2)cccc1-c1ccc(OC(F)(F)F)cc1 | – | PK model | mouse | oral, 40 mg/kg/day | – | absorption rate constant | 0.112 h⁻¹ |

| SMILES | tested on | test | system | conditions | how to read | quantity | result |
| --- | --- | --- | --- | --- | --- | --- | --- |
| Cc1cc(C)c(CNC(=O)c2cc(Cl)c3c(c2C)O[C@@](C)([C@H]2CC[C@H](N(C)C)CC2)O3)c(=O)[nH]1 | – | item: Arthralgia | human patients | oral, 200 mg once daily, 1 day onset day 14 | – | patients with TEAE | 0% |
| CCOc1c([C@H](C)n2nc(C)c3c(N)ncnc32)cc(Cl)c(F)c1[C@@H]1CNC(=O)C1 | – | item: QTcF change above 60 ms | previously treated B-cell malignancy | oral, 20 mg once daily, overall population | relative to: baseline | ECG observations | 1.2% |
| O=C1NCCc2nc(OCc3cccc(F)c3)ccc21 | – | item: tail erection | Sprague-Dawley rat male | oral, 100 mg/kg, 1 h | direction not given | Irwin test score | 0 |
| N#Cc1ccc2c(c1)[C@H]1CCCN(C(=O)c3ccc4[nH]cnc4c3)[C@H]1C2 | – | – | human | 160 mg, day 7 | – | maximum ACTH level | 15.6 pmol/L |
| C[C@@H](Nc1cc(F)cc(F)c1)c1cc(C(=O)N(C)C)cc2c(=O)cc(N3CCOCC3)oc12 | – | item: Clostridioides difficile colitis | patients with advanced solid tumours | oral, dose not given, dose finding phase I | – | treatment-related serious adverse events | 0% |
| Cn1cc(-c2ccc(-c3cncc(Cl)c3N3CCC4(CCNC4=O)CC3)cc2)cn1 | COLO 205 | gene expression, microarray, item: KANK1 mRNA | – | concentration not given, 2 h | relative to: untreated cells | log2 fold change | -1.24 |
| COc1cc2nccc(Oc3ccc(NC(=O)c4cc5c(n(-c6ccccc6)c4=O)CCCC5=O)nc3)c2cc1OC | – | – | human, relapsed/refractory AML | oral, dose not given, all dose groups combined | – | patients with serious TEAEs | 85% |
| C=CCn1c(=O)c2cnc(Nc3ccc(N4CCN(C)CC4)cc3)nc2n1-c1cccc(C(C)(C)O)n1 | – | – | human, plasma | oral, 200 mg once daily, -5-day lead-in, monotherapy lead-in | – | Tmax | 2 h |
| CC(=O)Oc1ccccc1C(=O)O | – | – | male Hartley guinea pigs, anaesthetized | intravenous, 10 mg/kg over 10 min, after infusion | – | heart rate | 253 ± 0.5 beats/min |
| O=c1c2ccccc2oc2ccccc12 | – | – | tricaprin-tricaprylin mixture | 60 °C, tricaprin fraction 0.36 | – | solubility | 0.0827 mole fraction |
| O=C(/C=C/CCc1ccc(O)cc1)/C=C/c1ccc(O)cc1 | – | – | nude mouse MCF7 xenograft | 40 mg/kg, day 4 | – | body weight | 19.6 ± 0.98 g |
| CN(C(=O)n1cnc(-c2ccc[n+]([O-])c2)c1)[C@H]1CC[C@H](O)CC1 | – | – | rat, hippocampus | oral, 10 mg/kg daily for 5 days, 72 h | – | tissue concentration | 13.4 ± 0.3 ng/g |
| COc1cc(Nc2ncc3c(n2)-c2ccc(Cl)cc2C(c2c(F)cccc2OC)=NC3)ccc1C(=O)O | – | – | patients | oral, dose not given, grade 1, any attribution, together with: pembrolizumab | – | decreased neutrophil count incidence | 25% |
| CCn1cc(C(=O)N2CCOCC2)c(=O)c2cc(NC3Cc4ccccc4C3)cnc21 | – | – | human male, fed, plasma | oral, 900 mg twice daily, day 7, tablet, arithmetic mean | – | Cmax | 6690 ng/mL |
| CCN1/C(=C/C(C)=O)Sc2ccc(F)cc21 | – | – | cynomolgus monkey | oral, 30 mg/kg, 4 h post-dose | relative to: pre-dose | heart rate change | 88.2 ± 20.7% |
| CCc1cc(C(=O)NC)c2nccc(N3CCc4c(cc(Cn5ccnc5)cc4-c4cn(C)nc4C(F)(F)F)C3=O)c2c1 | – | – | Sprague Dawley rats | oral, 100 mg/kg once daily, 7 days | – | serum GGT activity | 0.5 ± 0.58 U/L |
| COc1cccc(OC)c1-c1cc(C(=O)NC2(C(=O)O)C3CC4CC(C3)CC2C4)nn1-c1ccc(C(=O)N(C)CCCN(C)CCCN(C)C(=O)CN2CCN(CC(=O)[O-])CCN(CC(=O)[O-])CCN(CC(=O)[O-])CC2)cc1C(C)C.[177Lu+3] (stereo not drawn) | – | – | mouse HT-29 xenograft | 4 h, biodistribution | relative to: tumour over stomach | tumour-to-stomach ratio | 21.5 |
| O=C1CC[C@H](N2Cc3cc(N4CCN(CC5CCN(c6ccc([C@@H]7c8ccc(O)cc8CC[C@@H]7c7ccccc7)cc6)CC5)CC4)ccc3C2=O)C(=O)N1 | – | rapid equilibrium dialysis | SD rat liver microsomes | 2.5 µM, 6 h | – | recovery | 116% |
| CO[C@@H]1[C@H](O)[C@@H](CO)O[C@H]1n1c([N+](=O)[O-])nc2c(=O)[nH]c(N)nc21 | – | depurination, RP-HPLC | citrate-phosphate buffer 0.5 mM | 480 min, pH 2, 37 °C | – | nucleoside remaining fraction | 0.591 |
| Oc1ccc([C@H]2COc3cc(O)ccc3C2)cc1 | – | – | human CSF | concentration not given, mean | – | CSF concentration | not detected |
| Cc1cc(-c2nccc3c2ccn3CC(=O)Nc2ccc(-c3cnccn3)cn2)ccn1 | – | – | human | 5 mg once daily, multiple ascending dose | – | subjects with Erythema adverse event | 0% |
| CC(C(=O)NCC(=O)NCC(CNC(=O)CNC(=O)C(C)N1CCN(CC(=O)[O-])CCN(CC(=O)[O-])CCN(CC(=O)[O-])CC1)(CNC(=O)CNC(=O)C(C)N1CCN(CC(=O)[O-])CCN(CC(=O)[O-])CCN(CC(=O)[O-])CC1)CNC(=O)CNC(=O)C(C)N1CCN(CC(=O)[O-])CCN(CC(=O)[O-])CCN(CC(=O)[O-])CC1)N1CCN(CC(=O)[O-])CCN(CC(=O)[O-])CCN(CC(=O)[O-])CC1.[Gd+3].[Gd+3].[Gd+3].[Gd+3] (stereo not drawn) | – | ICP-MS | cynomolgus monkey, feces | 3 days post-injection | relative to: dose | cumulative fecal excretion | 0.3% |
